Measurements pooled from the literature.
Lines come from different studies, so protocols differ.
Target: Ribosomal protein S6 kinase alpha-2 (RPS6KA2, Homo sapiens, UniProt Q15349)
Sequence of UniProt Q15349 (whole entry, looked up): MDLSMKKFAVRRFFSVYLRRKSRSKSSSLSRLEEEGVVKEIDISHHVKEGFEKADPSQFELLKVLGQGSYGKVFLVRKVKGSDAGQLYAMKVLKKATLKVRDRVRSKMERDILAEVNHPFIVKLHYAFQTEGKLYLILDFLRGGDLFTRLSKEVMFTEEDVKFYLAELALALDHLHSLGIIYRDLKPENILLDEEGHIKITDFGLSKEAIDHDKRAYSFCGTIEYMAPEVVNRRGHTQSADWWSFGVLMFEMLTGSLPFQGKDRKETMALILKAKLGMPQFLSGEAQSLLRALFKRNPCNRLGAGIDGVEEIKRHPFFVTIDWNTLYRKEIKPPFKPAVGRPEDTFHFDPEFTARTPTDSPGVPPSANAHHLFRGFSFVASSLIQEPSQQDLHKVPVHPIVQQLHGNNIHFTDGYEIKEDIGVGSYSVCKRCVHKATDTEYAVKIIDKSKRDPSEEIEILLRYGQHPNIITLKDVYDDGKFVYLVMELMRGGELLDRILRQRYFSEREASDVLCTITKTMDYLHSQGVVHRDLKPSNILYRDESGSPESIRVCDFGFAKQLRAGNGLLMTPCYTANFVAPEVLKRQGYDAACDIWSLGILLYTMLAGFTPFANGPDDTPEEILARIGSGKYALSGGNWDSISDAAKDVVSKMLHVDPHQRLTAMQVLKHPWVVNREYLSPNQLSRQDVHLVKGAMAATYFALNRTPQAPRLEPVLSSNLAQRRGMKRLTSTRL

`CC[C@@H]1[C@H](F)C(=O)N[C@@H]1COc1nccc2cc(C(N)=O)c(OC)cc12` has an inhibition of -7.6% (ATP-site probe binding, ActivX profiling, refers to: RSK3; THP-1 cell lysate; 0.04 mM, Lys2 site).
`CC(C)(O)[C@H]1CC[C@H](Nc2ccc3ncc(-c4cccc(C(F)(F)F)c4)n3n2)CC1` gave a remaining activity of 93.9% (enzyme activity, inhibitor; 1 µM, added: 10 µM ATP; relative to: DMSO).
The inhibition of `CN1CC(Oc2cnc(C#N)cc2-c2ccn3nc(NC(=O)C4CC4)cc3c2)C1` is reported as -1% (inhibitor, KinaseProfiler panel; 1 µM).
The inhibition of `CC/C(=N\NC(=O)NCc1cccc(O)c1)c1ccc(O)c(C)c1O` is reported as 39.1% (kinase activity; 0.1 µM).
The ΔTm of `Cn1c2c(c3ccc(Cl)c(Cl)c31)C(C#N)C1(CCN(C(=O)OC(C)(C)C)CC1)NC2=O` (racemic) is reported as 0 °C (thermal shift; 10 µM, 2 µM protein; higher = stronger binding).
For `Cc1cc(Nc2cc(N3CCN(C)CC3)nc(Sc3ccc(NC(=O)C4CC4)cc3)n2)[nH]n1`, the remaining activity was 94% (kinase activity, KinaseProfiler; 0.03 µM, species human; relative to: control).
`N#CC1c2c([nH]c3c(Cl)c(Cl)ccc23)C(=O)NC12CCCCC2` (racemic) gave a ΔTm of 0.6 °C (thermal shift; 10 µM, 2 µM protein; higher = stronger binding).
The inhibition of `CNc1cccc2cc(C(=O)Nc3ccc(C(=O)O)cc3)c(=O)[nH]c12` is reported as 5.4% (kinase activity, inhibitor; 10 µM).
For `Cn1c2c(c3ccc(Cl)c(Cl)c31)C(C#N)C1(CCCC1)NC2=O` (stereo not shown), the ΔTm was 0.3 °C (thermal shift; 10 µM, 2 µM protein; higher = stronger binding).
With `COc1cc(F)ccc1-c1ncnc(Nc2cccc(C[S@](C)(=N)=O)c2)n1` the remaining activity was 97% (kinase activity; 10 µM, added: 10 µM ATP).
